Results gathered from unrelated publications.
Each line is one published result; not all experiments were run side by side. Several values in a cell are separate wells, animals, samples, runs or records. ± marks the error that the study gave.
Chain of UniProt P13798 (whole entry, looked up): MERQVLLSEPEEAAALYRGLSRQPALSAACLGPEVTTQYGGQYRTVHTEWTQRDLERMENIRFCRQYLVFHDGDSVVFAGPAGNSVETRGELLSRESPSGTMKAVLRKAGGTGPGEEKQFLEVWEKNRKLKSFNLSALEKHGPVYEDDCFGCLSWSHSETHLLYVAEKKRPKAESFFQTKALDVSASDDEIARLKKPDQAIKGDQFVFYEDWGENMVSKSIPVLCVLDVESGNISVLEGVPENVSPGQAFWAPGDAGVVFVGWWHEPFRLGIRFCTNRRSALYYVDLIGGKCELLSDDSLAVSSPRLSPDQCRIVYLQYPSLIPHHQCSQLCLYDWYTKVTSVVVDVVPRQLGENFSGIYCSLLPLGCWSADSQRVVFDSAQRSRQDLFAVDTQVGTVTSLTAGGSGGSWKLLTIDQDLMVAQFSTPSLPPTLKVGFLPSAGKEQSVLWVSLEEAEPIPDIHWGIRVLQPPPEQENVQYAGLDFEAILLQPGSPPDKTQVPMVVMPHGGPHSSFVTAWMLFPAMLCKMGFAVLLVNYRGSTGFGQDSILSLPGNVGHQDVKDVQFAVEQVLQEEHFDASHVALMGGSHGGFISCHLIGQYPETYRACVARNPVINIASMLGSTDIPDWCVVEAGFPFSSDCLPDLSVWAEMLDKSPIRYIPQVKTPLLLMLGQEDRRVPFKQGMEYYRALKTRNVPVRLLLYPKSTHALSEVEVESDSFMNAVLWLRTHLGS
Chain of UniProt P11473 (whole entry, looked up): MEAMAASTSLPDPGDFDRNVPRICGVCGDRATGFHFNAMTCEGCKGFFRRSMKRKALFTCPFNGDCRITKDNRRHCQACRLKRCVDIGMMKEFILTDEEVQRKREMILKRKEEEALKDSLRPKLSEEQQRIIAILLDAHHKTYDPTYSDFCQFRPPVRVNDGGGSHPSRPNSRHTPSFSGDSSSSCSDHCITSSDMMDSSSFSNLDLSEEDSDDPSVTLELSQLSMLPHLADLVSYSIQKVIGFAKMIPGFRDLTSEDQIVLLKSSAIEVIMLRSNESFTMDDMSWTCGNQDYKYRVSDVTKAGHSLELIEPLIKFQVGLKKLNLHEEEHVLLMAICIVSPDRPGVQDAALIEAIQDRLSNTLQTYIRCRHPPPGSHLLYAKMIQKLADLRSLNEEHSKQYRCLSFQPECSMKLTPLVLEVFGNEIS

| Structure (SMILES) | tested on | test | test system | setting | scale | quantity | value |
| --- | --- | --- | --- | --- | --- | --- | --- |
| CC(=O)O[C@H]1C=C[C@H]2[C@H]3Cc4ccc(O)c5c4[C@@]2(CCN3C)[C@H]1O5 |  |  | rat, whole blood | 10 nM, 4 freeze-thaw cycles |  | stability bias | 3.83% |
| COc1ccc2c3c1O[C@H]1[C@@H](O)C=C[C@H]4[C@@H](C2)N(C)CC[C@@]341 |  | PAMPA-BBB | porcine brain lipid | 500 µM, 4 h, pH 7.4, 1% DMSO |  | Papp | 15.2 ×10⁻⁶ cm/s |
| CC[C@H](C)[C@H](NC(=O)[C@H](Cc1ccccc1)NC(=O)[C@H](CCC(=O)O)NC(=O)[C@H](CCCNC(=N)N)NC(=O)[C@H](C)NC(=O)[C@H](C)NC(=O)[C@H](CCC(N)=O)NC(=O)[C@H](CCC(=O)O)NC(=O)[C@H](CCC(=O)O)NC(=O)[C@H](CC(C)C)NC(=O)[C@H](Cc1ccc(O)cc1)NC(=O)[C@H](CO)NC(=O)[C@H](CO)NC(=O)[C@@H](NC(=O)[C@H](CC(=O)O)NC(=O)[C@H](CO)NC(=O)[C@@H](NC(=O)[C@H](Cc1ccccc1)NC(=O)[C@@H](NC(=O)CNC(=O)[C@H](CCC(=O)O)NC(=O)[C@H](C)NC(=O)CCc1c[nH]cn1)[C@@H](C)O)[C@@H](C)O)C(C)C)C(=O)N[C@@H](C)C(=O)N[C@@H](Cc1c[nH]c2ccccc12)C(=O)N[C@@H](CC(C)C)C(=O)N[C@H](C(=O)N[C@@H](CCCNC(=N)N)C(=O)NCC(=O)N[C@@H](CCCNC(=N)N)C(=O)N[C@@H](CCCCNC(=O)COCCOCCNC(=O)COCCOCCNC(=O)CC[C@H](NC(=O)CCCCCCCCCCCCCCCCC(=O)O)C(=O)O)C(=O)NCC(=O)NCC(=O)N[C@@H](CO)C(=O)N[C@@H](CCCCNc1c(NCCCCCN(O)C(=O)CCC(=O)NCCCCCN(O)C(=O)CCC(=O)NCCCCCN(O)C(C)=O)c(=O)c1=O)C(=O)O)C(C)C [zirconium-89 labelled] |  |  | rat, colon | iv, 3 nmol/kg, 72 h, ex vivo |  | tissue uptake | 0.2 %ID/g |
| CC(C)C[C@@H]1NC(=O)[C@H](CC(C)C)NC(=O)[C@H](Cc2c[nH]c3ccccc23)NC(=O)[C@H](CO)NC(=O)[C@H](Cc2c[nH]c3ccccc23)NC(=O)[C@@H]2CCCN2C(=O)[C@H](CC(C)C)NC(=O)[C@H](Cc2c[nH]cn2)NC(=O)[C@@H]2CCCN2C(=O)[C@H](CC(N)=O)NC(=O)[C@H](C)NC(=O)[C@H](Cc2ccc(O)cc2)NC(=O)[C@H](CS)NC(=O)[C@H](CCCCNC(=O)CN2CCN(CC(=O)O)CCN(CC(=O)O)CCN(CC(=O)O)CC2)NC1=O [lutetium-177 labelled] |  |  | Balb/c mouse, female, 4T1 tumour, liver | intravenous, 3.7 MBq, 24 h |  | tissue uptake | 5.46 ± 1 %ID |
| COc1cc(Nc2ncc(F)c(Nc3ccc4c(n3)NC(=O)C(C)(C)O4)n2)cc(OC)c1OC | Vitamin D3 receptor (VDR, Homo sapiens, UniProt P11473) |  |  |  |  | IC50 | > 10 µM |
| CN1CC[C@]23c4c5ccc(O)c4O[C@H]2[C@@H](O)C=C[C@H]3[C@H]1C5 |  |  | mouse | intraperitoneal, 10 mg/kg | reference: vehicle | conditioned place preference score | increased |
| O=C1c2c(O)c(=O)ccn2N([C@@H]2c3ccccc3SCc3c2ccc(F)c3F)[C@@H]2COCCN12 |  |  | BALB/c mice, plasma | oral, 1.5 mg/kg baloxavir marboxil, 6 h |  | plasma concentration | 4.91 ng/mL |
| CCCCCCCCCCC(=O)O[C@H]1CC[C@H]2[C@@H]3CCC4=CC(=O)CC[C@]4(C)[C@H]3CC[C@]12C |  |  | human male serum | 500 ng/mL, NaF 25.0 mg/mL, baseline testosterone 441 ng/dL |  | testosterone level | 454 ng/dL |
| CO[C@H]1C[C@@H]2CC[C@@H](C)[C@@](O)(O2)C(=O)C(=O)N2CCCC[C@H]2C(=O)O[C@H]([C@H](C)C[C@@H]2CC[C@@H](OC(=O)NCCOCCOCCOCCOCCOCCOCCOCCOCCC(=O)N3CCc4cc(Cn5nc(-c6ccc7oc(N)nc7c6)c6c(N)ncnc65)ccc4C3)[C@H](OC)C2)C[C@@H](O)[C@H](C)/C=C(\C)[C@@H](O)[C@@H](OC)C(=O)[C@H](C)C[C@H](C)/C=C/C=C/C=C/1C |  |  | patients with advanced solid tumours | intravenous, 6 mg weekly, any grade |  | AE leading to dose reduction | 0% |
| Cc1ncc2n1-c1ccc(Cl)cc1C(c1ccccc1F)=NC2 |  |  | wild-type mice, plasma | intravenous, 0.3 mg/kg, added: 3-day PCN 10 mg/kg |  | clearance | 358 ± 28 mL/min |
| C[C@]1(CO)Cc2ncn(-c3ccc(C#N)c(Cl)c3)c2C(=O)O1 |  |  | human | concentration not given, European MRD and food-effect parts |  | drug-related AE incidence | 13.9% |
| Cc1ncc(OC[C@@]2(c3cccc(F)c3)C[C@H]2C(=O)Nc2ccc(F)cn2)c(C)n1 |  | population PK base model | human, plasma | oral |  | V2/F | 12.3 L |
| CN1CC[C@]23c4c5ccc(O)c4O[C@H]2[C@@H](O)CC[C@@]3(O)[C@H]1C5 |  | PAMPA-BBB | porcine brain lipid | 500 µM, 4 h, pH 7.4, 1% DMSO |  | Papp | 5.1 ×10⁻⁶ cm/s |
| CCCCCCC(C)(C)c1ccc([C@@H]2C[C@H](O)CC[C@H]2CCCO)c(O)c1 |  |  | mouse | intraperitoneal, 0.3 mg/kg | direction not given | conditioned place preference score | -112 and -28.7 and -212 and -27.7 and -57.9 and -238 and -37.5 and -4.25 |
| CN1CC[C@]23c4c5ccc(O)c4O[C@H]2[C@@H](O[C@@H]2O[C@H](C(=O)O)[C@@H](O)[C@H](O)[C@H]2O)C=C[C@H]3[C@H]1C5 |  |  | rat, whole blood | 10 nM, 4 freeze-thaw cycles |  | stability bias | 9.83% |
| O=C(c1ccc(Cl)cc1)N1CCN2C(=O)N(OC(=O)N3CCOc4ccccc43)C(=O)C2C1 (stereo not drawn) | APEH (Homo sapiens, UniProt P13798) | MS-based ABPP | SW-620 conditioned medium | 10 µM, 1 h, 37 °C | reference: compound over DMSO, lower = more inhibition | median protein ratio | 1.13 |
| Cc1ncc2n1-c1ccc(Cl)cc1C(c1ccccc1F)=NC2 |  |  | healthy volunteers, plasma | oral, 5 mg single dose, day 1, given alone |  | AUC(0-last) | 95.9 ng·h/mL |
| C[C@@H](O)[C@@H](CO)NC(=O)[C@@H](CCCNC(=N)N)NC(=O)[C@@H]1CCCN1C(=O)[C@@H]1CSSC[C@H](NC(=O)[C@H](Cc2ccccc2)NC(=O)CN2CCN(CC(=O)O)CCN(CC(=O)O)CCN(CC(=O)O)CC2)C(=O)N[C@@H](Cc2ccc(O)cc2)C(=O)N[C@@H](Cc2ccccc2)C(=O)N[C@@H](CCC(N)=O)C(=O)N[C@@H](CC(N)=O)C(=O)N1 [gallium-68 labelled] |  |  | Wistar rat, heart | intravenous, 8 MBq, 120 min, group mean |  | tissue uptake | 0.03 %ID/g |
| COC(=O)[C@H]1[C@@H](OC(=O)c2ccccc2)C[C@@H]2CC[C@H]1N2C |  |  | rat, whole blood | 10 nM, 4 freeze-thaw cycles |  | stability bias | -3.83% |
| C#Cc1ccc2c(c1)C(c1ccccn1)=NCc1c(-c3cnco3)ncn1-2.Cl |  | thermodynamic equilibrium, UV | ethanol | 24 h, 25 °C |  | solubility | 4340 µg/mL |
| COC(=O)[C@H]1[C@@H](OC(=O)c2ccccc2)C[C@@H]2CC[C@H]1N2 |  |  | rat, whole blood | 10 nM, 4 freeze-thaw cycles |  | stability bias | 19% |
| COc1cc2c(Oc3ccc4[nH]c(C)cc4c3F)ccnc2cc1OCC1(N)CC1 |  |  | paediatric recurrent refractory sarcoma | 8 mg |  | grade 3 influenza-like symptoms | 0% |
| COC(=O)[C@@H]1[C@H]2CC[C@@H](C[C@@H]1O)N2C |  |  | rat, whole blood | 1000 nM, 4 h, room temperature, bench-top storage |  | stability bias | 6.53% |
| C[C@H]1CN(c2n[nH]c3nc(N[C@H]4CC[C@H](NS(=O)(=O)CCC(F)(F)F)CC4)ncc23)CCO1 | ATP1A1 (Homo sapiens, UniProt P05023) | inhibitor, Kinobeads competition profiling |  | 0.032 µM | reference: vehicle | relative abundance | 1.22 |

Excerpt of the above:
| Structure (SMILES) | tested on | test | test system | setting | scale | quantity | value |
| --- | --- | --- | --- | --- | --- | --- | --- |
| C[C@H]1CN(c2n[nH]c3nc(N[C@H]4CC[C@H](NS(=O)(=O)CCC(F)(F)F)CC4)ncc23)CCO1 | ATP1A1 (Homo sapiens, UniProt P05023) | inhibitor, Kinobeads competition profiling |  | 0.032 µM | reference: vehicle | relative abundance | 1.22 |
| C#Cc1ccc2c(c1)C(c1ccccn1)=NCc1c(-c3cnco3)ncn1-2.Cl |  | thermodynamic equilibrium, UV | ethanol | 24 h, 25 °C |  | solubility | 4340 µg/mL |
